# Results gathered from unrelated publications.
# Compare with care: the assays were run in different laboratories.
SMILES,tested on,test,test system,conditions,endpoint,result
CC1OC(OC2C(CO)OC(OC3CCC4(C)C(CCC5(C)C4CC=C4C6CC(C)(C)CCC6(C(=O)O)CCC45C)C3(C)C)C(OC3OC(C)C(O)C(O)C3O)C2O)C(O)C(O)C1O (centres unmarked),Severe acute respiratory syndrome coronavirus 2,viral replication,293T/ACE2,20 µM,inhibition,57.6%
C[C@]12C=CC(=O)C=C1CC[C@@H]1[C@@H]2[C@@H](O)C[C@@]2(C)[C@H]1C[C@H]1OC(C3CCCC3)O[C@]12C(=O)CO (some centres unmarked),Severe acute respiratory syndrome coronavirus 2,viral replication,VeroE6/TMPRSS2,,IC50,16.6 µM
C=CCOC(=O)C12CCC(C)(C)CC1C1=CCC3C4(C)CCC(OC5OC(COC(=O)C(C)(C)C)C(O)C(OC(=O)C(C)(C)C)C5O)C(C)(C)C4CCC3(C)C1(C)CC2 (centres unmarked),Severe acute respiratory syndrome coronavirus 2,viral replication,293T/ACE2,20 µM,inhibition,24.4%
O=C(C=Cc1ccc(O)c(O)c1)OC1CC(O)(C(=O)O)CC(OC(=O)C=Cc2ccc(O)c(O)c2)C1O (centres unmarked),Severe acute respiratory syndrome coronavirus 2,"cytopathic effect, inhibitor",Vero C1008,0.7812 µM,inhibition,0%
C[C@]12C=CC(=O)C=C1CC[C@@H]1[C@@H]2[C@@H](O)C[C@@]2(C)[C@H]1C[C@H]1OC(c3ccccc3)O[C@]12C(=O)CO (some centres unmarked),Severe acute respiratory syndrome coronavirus 2,"viral replication, inhibitor",VeroE6/TMPRSS2,24 h,IC50,> 30 µM
C=CCOC(=O)C12CCC(C)(C)CC1C1=CCC3C4(C)CCC(OC5OC(CO)C(OC6OC(C)C(O)C(O)C6O)C(O)C5OC5OC(C)C(O)C(O)C5O)C(C)(C)C4CCC3(C)C1(C)CC2 (centres unmarked),Severe acute respiratory syndrome coronavirus 2,viral replication,293T/ACE2,20 µM,inhibition,56.3%
CO/C1=C\C(C)=C\[C@@H](C)[C@@H](O)[C@@H](C)C/C(C)=C/C=C/[C@H](OC)[C@@H]([C@@H](C)[C@@H](O)[C@H](C)C(=O)/C=C/[C@H](C)[C@H](O)C(C)C)OC1=O,Severe acute respiratory syndrome coronavirus 2,viral replication,Calu-3,50 µM,inhibition,92%
COC(=O)c1cc2c(=O)n3ccccc3nc2n1Cc1ccccc1,Severe acute respiratory syndrome coronavirus 2,"viral replication, inhibitor, qPCR",Vero C1008,,EC90,36.1 µM
Cc1ccc(N2CC3CC(C2)N3C)cc1C(=O)NC1(c2ccc3c4c(cccc24)C(=O)N3C)CC1,Severe acute respiratory syndrome coronavirus 2,viral replication,Vero C1008,5.716 nM,inhibition,0%
O=C(OC1Cc2c(O)cc(O)cc2OC1c1cc(O)c(O)c(O)c1)c1cc(O)c(O)c(O)c1 (centres unmarked),Severe acute respiratory syndrome coronavirus 2,antiviral activity,Huh-7,96 h,EC50,> 100 µM
CCCCCCCCCC1O[C@@H]2C[C@H]3[C@@H]4CCC5=CC(=O)C=C[C@]5(C)[C@H]4[C@@H](O)C[C@]3(C)[C@]2(C(=O)CO)O1 (some centres unmarked),Severe acute respiratory syndrome coronavirus 2,viral replication,VeroE6/TMPRSS2,,IC50,6.4 µM
CCCCCCCCCCCCCCCC(=O)N[C@@H](CCC(=O)NCCOCCOCCC(=O)NCCOCCOCCC(=O)NCCCC[C@H](NC(=O)[C@H](CC(=O)O)NC(=O)[C@H](CC(C)C)NC(=O)[C@H](Cc1ccc(O)cc1)NC(=O)[C@H](CCCCN)NC(=O)[C@H](CO)NC(=O)[C@H](Cc1ccc(O)cc1)NC(=O)[C@H](CC(=O)O)NC(=O)[C@H](CO)NC(=O)[C@@H](NC(=O)[C@H](Cc1ccccc1)NC(=O)[C@@H](NC(=O)CNC(=O)[C@H](CCC(N)=O)NC(=O)[C@@H](CO)NC(=O)[C@@H](N)Cc1c[nH]cn1)[C@@H](C)O)[C@@H](C)O)C(=O)N[C@@H](CCCNC(=N)N)C(=O)N[C@@H](CCCNC(=N)N)C(=O)N[C@@H](C)C(=O)N[C@@H](CCC(N)=O)C(=O)N[C@@H](CC(=O)O)C(=O)N[C@@H](Cc1ccccc1)C(=O)N[C@H](C(=O)N[C@@H](CCC(N)=O)C(=O)N[C@@H](Cc1c[nH]c2ccccc12)C(=O)N[C@@H](CC(C)C)C(=O)N[C@@H](CC(C)C)C(=O)N[C@@H](CC(N)=O)C(=O)N[C@H](C(=O)NCC(=O)NCC(=O)N1CCC[C@H]1C(=O)N[C@@H](CO)C(=O)N[C@@H](CO)C(=O)NCC(=O)N[C@@H](C)C(=O)N1CCC[C@H]1C(=O)N1CCC[C@H]1C(=O)N1CCC[C@H]1C(=O)N[C@@H](CO)C(N)=O)[C@@H](C)O)C(C)C)C(=O)O,,,"rhesus monkey, male, plasma","subcutaneous, 60 µg/kg, day 28, toxicokinetics, mean",Cmax,97.9 ng/mL
C[C@]12C=CC(=O)C=C1CC[C@@H]1[C@@H]2[C@@H](O)C[C@@]2(C)[C@H]1C[C@H]1OC(c3cccc(Cl)c3)O[C@]12C(=O)CO (some centres unmarked),Severe acute respiratory syndrome coronavirus 2,viral replication,VeroE6/TMPRSS2,,IC50,8 µM
O=C(O[C@@H]1Cc2c(O)cc(O)cc2O[C@H]1c1ccc(O)c(O)c1)c1cc(O)c(O)c(O)c1,Severe acute respiratory syndrome coronavirus 2,antiviral activity,Huh-7,96 h,EC50,> 100 µM

# Some of these lines once more:
SMILES,tested on,test,test system,conditions,endpoint,result
CCCCCCCCCC1O[C@@H]2C[C@H]3[C@@H]4CCC5=CC(=O)C=C[C@]5(C)[C@H]4[C@@H](O)C[C@]3(C)[C@]2(C(=O)CO)O1 (some centres unmarked),Severe acute respiratory syndrome coronavirus 2,viral replication,VeroE6/TMPRSS2,,IC50,6.4 µM
